Values quoted from earlier work, collected from citations in different studies.
Lines come from different studies, so protocols differ. ± marks the error that the study gave. Converted amounts (≈) assume the structure as drawn.

Compound	tested on	assay	system	conditions	quantity	result
O=C(O)C(F)(F)C(F)(F)C(F)(F)C(F)(F)C(F)(F)C(F)(F)C(F)(F)C(F)(F)F	CYP3A4	inhibitor		Tox21 screening	IC50	inactive
NC(=O)N1c2ccccc2C=Cc2ccccc21			dog		fraction unbound	0.159
O=NN1CCCC1	induced pluripotent stem cells	mutational fingerprint		concentration not given	C>T mutation frequency	increased
FC(F)(F)C(F)(F)C(F)(F)C(F)(F)CCI	CYP2C9	inhibitor		Tox21 screening	IC50	inactive
Cc1ncc2n1-c1ccc(Cl)cc1C(c1ccccc1F)=NC2	CYP3A5	1-hydroxylation, substrate			Km	4.16 µM
CN1CCCC(n2nc(Cc3ccc(Cl)cc3)c3ccccc3c2=O)CC1 (stereo not shown)			dog		fraction unbound	0.011
CC(C)N(N=O)C(C)C	Salmonella typhimurium	plate incorporation, preincubation	TA1535	up to 2000 µg/plate, with: uninduced rat liver S9	Ames mutagenicity	negative
O=C(NC(=O)c1c(F)cccc1F)Nc1cc(Cl)c(OC(F)(F)C(F)F)c(Cl)c1	CYP1A2	inhibitor		Tox21 screening	IC50	31.5 ± 15.7 µM
CC(=O)C[C@@H](c1ccccc1)c1c(O)c2ccccc2oc1=O			human, fasted	oral, 5 mg, single dose, with: racemic warfarin 10 mg	Cmax, mean	550 ng/mL
Cn1nc(C(F)(F)F)cc1C(=O)Nc1ccc(S(=O)(=O)N2CCCCC2)cc1	Vero				CC50	199 ± 27 µM
O=C(O)[C@@H](c1ccccc1)[C@@H]1CCCCN1			human, by CES1 genotype, plasma	oral, 10 mg methylphenidate, single dose, median	Tmax	1.8 h
CCCC(C(=O)c1ccc2c(c1)OCO2)N1CCCC1 (racemic)	CYP2D6	enzyme activity, inhibitor			IC50	1.3 µM
c1cc2ccc3cccc4ccc(c1)c2c34				experimental mean or OPERA estimate	log Kow	4.88
CCCCCc1cc(O)c2c(c1)OC(C)(C)c1ccc(C)cc1-2	CYP2E1 human		human liver microsomes	10 µM	inhibition	inhibited
CC(=O)c1c(O)c(C)c(O)c2c1OC1=CC(=O)C(C(C)=O)C(=O)C12C (single isomer, unassigned; (+))	L6 rat skeletal myoblasts	cytotoxicity			IC50	11.6 µM
O=C(O)C(F)(F)C(F)(F)C(F)(F)C(F)(F)C(F)(F)C(F)(F)C(F)(F)C(F)(F)C(F)(F)C(F)(F)F	CYP2D6			concentration not given	activity	inactive
NC1CCCCC1N.O=C([O-])C(=O)[O-].[Pt+2] (stereo not shown)		refers to: free platinum	mouse, plasma ultrafiltrate	intravenous, 8.34 mg Pt/kg	AUC	3300 ng·h/mL
Cc1ncc2n1-c1ccc(Cl)cc1C(c1ccccc1F)=NC2	UGT1A4	direct glucuronidation, substrate		Simcyp library default value	Km	40.3 µM
CC(=O)O[C@@]12CO[C@@H]1C[C@H](O)[C@@]1(C)C(=O)[C@H](OC(=O)C3CC3)C3=C(C)[C@@H](OC(=O)[C@H](O)[C@H](C=C(C)C)NC(=O)OC(C)(C)C)C[C@@](O)([C@@H](OC(=O)c4ccccc4)[C@H]21)C3(C)C	MCF7	cytotoxicity			IC50	0.00074 µM

Compound	tested on	assay	system	conditions	quantity	result
CC(C(=O)O)c1ccc(-c2ccccc2)c(F)c1 (stereo not shown)			human		clearance	1.6 L/h
COCCOC(=O)C1=C(C)NC(C)=C(C(=O)OC(C)C)C1c1cccc([N+](=O)[O-])c1 (stereo not shown)			human		fraction unbound	0.008
O=S(=O)([O-])C(F)(F)C(F)(F)C(F)(F)C(F)(F)C(F)(F)C(F)(F)F.[K+]	CYP2D6			concentration not given	activity	inactive
CN(C)CCC=C1c2ccccc2C=Cc2ccccc21			mouse		fraction unbound	0.0034
Cc1nnc2n1-c1ccc(Cl)cc1C(c1ccccc1Cl)=NC2	CYP3A4	substrate, refers to: 4-hydroxy metabolite formation			Km	145 µM
C[Si]1(C)O[Si](C)(C)O[Si](C)(C)O[Si](C)(C)O[Si](C)(C)O1	Cyprinus carpio			concentration not given	bioconcentration factor	408 L/kg wet weight
NC12CC3CC(CC(C3)C1)C2			dog		fraction unbound	0.218
O=S(=O)(O)C(F)(F)C(F)(F)C(F)(F)C(F)(F)F	CYP2C9	inhibitor		Tox21 screening	IC50	23 ± 2.52 µM
CNCCC=C1c2ccccc2CCc2ccccc21			dog		fraction unbound	0.007
FC1(F)C(F)(F)C(F)(F)C2(F)C(F)(C1(F)F)C(F)(F)C(F)(F)C1(F)C(F)(F)C(F)(F)C(F)(F)C(F)(F)C12F (stereo not shown)	CYP3A4	inhibitor		Tox21 screening	IC50	inactive
CCCCCOc1ccc(-c2ccc(-c3ccc(C(=O)N[C@H]4C[C@@H](O)[C@@H](O)NC(=O)[C@@H]5[C@@H](O)[C@@H](C)CN5C(=O)[C@H]([C@@H](C)O)NC(=O)[C@H]([C@H](O)[C@@H](O)c5ccc(O)cc5)NC(=O)[C@@H]5C[C@@H](O)CN5C(=O)[C@H]([C@@H](C)O)NC4=O)cc3)cc2)cc1			healthy volunteers	200 mg day 1 then 100 mg days 2-4	volume of distribution	40.1 ± 9.6 L
c1ccc2c(c1)Cc1ccccc1-2				experimental mean	water solubility	15.5 µM (≈ 2.58 µg/mL)
COC(=O)[C@H](c1ccccc1)[C@H]1CCCCN1			human, CES1 wild type, plasma	oral, 10 mg methylphenidate, single dose, median	Tmax	2 h
O=c1n(CCCN2CCN(c3cccc(Cl)c3)CC2)nc2ccccn12			dog		fraction unbound	0.066
CCCCCc1cc(O)c2c(c1)OC(C)(C)[C@@H]1CCC(C)=C[C@@H]21	CYP2C9, human	enzyme activity, inhibitor	human liver microsomes	10 µM	inhibition	inhibited
CNCCC(Oc1ccc(C(F)(F)F)cc1)c1ccccc1 (stereo not shown)			mouse		fraction unbound	0.0018
O=C(O)C(F)(F)C(F)(F)C(F)(F)C(F)(F)C(F)(F)C(F)(F)C(F)(F)F	CYP2D6	inhibitor		Tox21 screening	IC50	inactive
C=C[C@@H]1C[C@]1(NC(=O)[C@@H]1C[C@@H]2CN1C(=O)[C@H](C(C)(C)C)NC(=O)O[C@@H]1C[C@H]1CCCCCc1nc3ccc(OC)cc3nc1O2)C(=O)NS(=O)(=O)C1CC1	BSEP (human)	ATP-dependent taurocholic acid uptake, inhibitor			IC50	0.15 µM
